Measured values collected from several papers.
Protocols differ between the studies behind these lines. ± marks the error that the study gave.

Sequences of proteins named here, by UniProt entry; tags and fusion partners are left off. Residues count along the entry.
UniProt Q7T069, 1-388: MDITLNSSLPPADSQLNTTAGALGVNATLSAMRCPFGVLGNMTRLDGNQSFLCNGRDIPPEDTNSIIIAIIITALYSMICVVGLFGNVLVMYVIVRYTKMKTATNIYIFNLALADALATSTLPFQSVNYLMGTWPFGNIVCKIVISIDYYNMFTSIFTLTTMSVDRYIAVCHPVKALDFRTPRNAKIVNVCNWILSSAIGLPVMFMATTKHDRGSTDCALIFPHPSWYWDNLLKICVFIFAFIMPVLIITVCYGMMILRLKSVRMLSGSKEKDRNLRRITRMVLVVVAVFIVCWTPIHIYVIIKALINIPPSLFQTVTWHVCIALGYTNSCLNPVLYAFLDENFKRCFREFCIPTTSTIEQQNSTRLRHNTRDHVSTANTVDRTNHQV
UniProt P37571, 1-150 limits assumed: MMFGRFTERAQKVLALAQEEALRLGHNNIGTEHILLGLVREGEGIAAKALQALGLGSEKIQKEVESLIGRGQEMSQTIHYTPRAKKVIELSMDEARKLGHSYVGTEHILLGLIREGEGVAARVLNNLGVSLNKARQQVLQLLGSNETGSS
UniProt Q9KTW3, 1-489: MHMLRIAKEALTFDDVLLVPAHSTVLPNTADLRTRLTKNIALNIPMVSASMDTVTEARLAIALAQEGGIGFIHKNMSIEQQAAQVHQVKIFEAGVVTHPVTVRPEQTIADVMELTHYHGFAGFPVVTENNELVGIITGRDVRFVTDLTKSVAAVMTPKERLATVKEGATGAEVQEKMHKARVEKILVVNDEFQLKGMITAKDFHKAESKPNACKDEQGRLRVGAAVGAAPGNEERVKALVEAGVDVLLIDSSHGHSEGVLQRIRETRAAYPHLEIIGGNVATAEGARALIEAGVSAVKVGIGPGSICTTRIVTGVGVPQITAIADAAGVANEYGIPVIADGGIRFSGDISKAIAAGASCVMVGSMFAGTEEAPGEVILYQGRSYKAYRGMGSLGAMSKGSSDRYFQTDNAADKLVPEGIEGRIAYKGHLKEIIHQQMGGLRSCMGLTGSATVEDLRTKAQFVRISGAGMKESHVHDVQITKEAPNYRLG
UniProt P67660, whole entry E104A, looked up: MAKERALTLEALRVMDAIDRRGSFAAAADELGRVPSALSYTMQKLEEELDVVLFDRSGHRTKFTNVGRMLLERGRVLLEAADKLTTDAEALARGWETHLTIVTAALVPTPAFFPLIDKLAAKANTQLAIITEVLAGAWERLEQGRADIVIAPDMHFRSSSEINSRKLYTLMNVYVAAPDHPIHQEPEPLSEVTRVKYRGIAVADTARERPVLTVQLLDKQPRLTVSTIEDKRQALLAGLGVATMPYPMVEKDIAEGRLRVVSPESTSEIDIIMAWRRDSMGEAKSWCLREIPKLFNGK
UniProt P16154, whole entry: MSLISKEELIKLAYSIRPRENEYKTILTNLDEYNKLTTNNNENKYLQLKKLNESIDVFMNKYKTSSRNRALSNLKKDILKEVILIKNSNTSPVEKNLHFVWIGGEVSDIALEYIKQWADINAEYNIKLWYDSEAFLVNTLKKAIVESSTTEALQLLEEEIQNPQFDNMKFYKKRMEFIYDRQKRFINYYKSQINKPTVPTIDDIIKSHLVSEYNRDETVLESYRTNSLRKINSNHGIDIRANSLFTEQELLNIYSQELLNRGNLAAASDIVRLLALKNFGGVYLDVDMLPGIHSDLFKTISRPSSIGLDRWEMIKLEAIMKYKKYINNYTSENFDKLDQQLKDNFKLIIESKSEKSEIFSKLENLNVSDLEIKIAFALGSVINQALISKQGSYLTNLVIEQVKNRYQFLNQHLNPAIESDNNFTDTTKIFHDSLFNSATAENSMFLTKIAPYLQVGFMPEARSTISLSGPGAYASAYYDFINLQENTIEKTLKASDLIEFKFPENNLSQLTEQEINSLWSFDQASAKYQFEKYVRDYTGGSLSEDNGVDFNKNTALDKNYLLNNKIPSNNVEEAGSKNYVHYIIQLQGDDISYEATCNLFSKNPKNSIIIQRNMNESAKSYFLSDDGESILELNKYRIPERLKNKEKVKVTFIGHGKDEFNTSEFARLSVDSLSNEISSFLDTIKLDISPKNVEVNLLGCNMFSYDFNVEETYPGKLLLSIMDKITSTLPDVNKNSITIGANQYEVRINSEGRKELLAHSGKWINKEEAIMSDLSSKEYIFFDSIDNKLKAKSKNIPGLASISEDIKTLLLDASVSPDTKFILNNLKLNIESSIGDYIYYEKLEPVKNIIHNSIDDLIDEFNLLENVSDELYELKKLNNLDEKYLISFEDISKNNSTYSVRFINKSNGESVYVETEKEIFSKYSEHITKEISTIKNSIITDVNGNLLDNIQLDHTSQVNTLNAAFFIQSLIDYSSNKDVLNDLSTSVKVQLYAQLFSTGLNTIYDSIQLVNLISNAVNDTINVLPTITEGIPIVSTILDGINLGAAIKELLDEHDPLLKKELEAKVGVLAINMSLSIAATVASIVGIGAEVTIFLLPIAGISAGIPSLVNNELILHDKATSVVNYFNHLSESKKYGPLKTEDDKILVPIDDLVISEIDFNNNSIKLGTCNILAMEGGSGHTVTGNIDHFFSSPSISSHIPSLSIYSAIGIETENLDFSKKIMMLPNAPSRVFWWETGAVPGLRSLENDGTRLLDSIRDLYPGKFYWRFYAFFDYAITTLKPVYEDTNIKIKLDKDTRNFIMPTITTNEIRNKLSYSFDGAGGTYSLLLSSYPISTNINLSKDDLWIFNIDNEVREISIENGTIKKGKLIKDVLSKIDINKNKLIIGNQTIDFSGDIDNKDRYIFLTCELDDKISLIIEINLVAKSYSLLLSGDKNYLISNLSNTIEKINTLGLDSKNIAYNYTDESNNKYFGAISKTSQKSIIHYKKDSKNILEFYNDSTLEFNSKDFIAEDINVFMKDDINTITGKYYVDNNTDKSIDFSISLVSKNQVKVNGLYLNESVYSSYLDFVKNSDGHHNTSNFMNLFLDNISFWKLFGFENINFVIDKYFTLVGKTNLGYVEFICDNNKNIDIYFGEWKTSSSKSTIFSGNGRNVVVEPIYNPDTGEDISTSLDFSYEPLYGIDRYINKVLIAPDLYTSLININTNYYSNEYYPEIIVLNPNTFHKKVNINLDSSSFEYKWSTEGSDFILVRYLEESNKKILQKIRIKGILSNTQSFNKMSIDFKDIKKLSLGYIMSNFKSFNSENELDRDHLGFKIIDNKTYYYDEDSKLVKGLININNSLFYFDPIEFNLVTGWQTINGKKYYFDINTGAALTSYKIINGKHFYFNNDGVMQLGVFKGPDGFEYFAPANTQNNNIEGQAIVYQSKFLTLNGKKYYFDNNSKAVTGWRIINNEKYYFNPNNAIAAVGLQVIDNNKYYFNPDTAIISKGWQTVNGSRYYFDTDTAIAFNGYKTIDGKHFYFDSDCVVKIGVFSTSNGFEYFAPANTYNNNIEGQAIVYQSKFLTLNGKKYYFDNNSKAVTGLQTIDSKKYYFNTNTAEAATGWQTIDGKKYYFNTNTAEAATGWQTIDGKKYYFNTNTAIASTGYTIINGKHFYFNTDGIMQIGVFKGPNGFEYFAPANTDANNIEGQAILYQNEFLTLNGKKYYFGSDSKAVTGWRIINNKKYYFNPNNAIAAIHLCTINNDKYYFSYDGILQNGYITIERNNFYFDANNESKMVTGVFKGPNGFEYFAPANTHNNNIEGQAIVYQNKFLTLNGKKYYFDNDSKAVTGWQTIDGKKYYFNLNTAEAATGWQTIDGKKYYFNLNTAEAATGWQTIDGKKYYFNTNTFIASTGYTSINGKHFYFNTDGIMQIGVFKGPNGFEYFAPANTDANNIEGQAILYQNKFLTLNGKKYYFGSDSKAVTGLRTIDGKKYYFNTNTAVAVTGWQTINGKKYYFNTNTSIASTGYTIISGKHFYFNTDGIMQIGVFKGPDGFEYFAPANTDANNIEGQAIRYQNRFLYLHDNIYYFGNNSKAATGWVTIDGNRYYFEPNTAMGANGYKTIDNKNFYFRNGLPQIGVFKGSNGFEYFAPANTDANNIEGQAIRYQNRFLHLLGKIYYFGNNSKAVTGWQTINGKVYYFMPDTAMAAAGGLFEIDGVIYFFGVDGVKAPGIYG
UniProt O42275, 24-633 limits assumed: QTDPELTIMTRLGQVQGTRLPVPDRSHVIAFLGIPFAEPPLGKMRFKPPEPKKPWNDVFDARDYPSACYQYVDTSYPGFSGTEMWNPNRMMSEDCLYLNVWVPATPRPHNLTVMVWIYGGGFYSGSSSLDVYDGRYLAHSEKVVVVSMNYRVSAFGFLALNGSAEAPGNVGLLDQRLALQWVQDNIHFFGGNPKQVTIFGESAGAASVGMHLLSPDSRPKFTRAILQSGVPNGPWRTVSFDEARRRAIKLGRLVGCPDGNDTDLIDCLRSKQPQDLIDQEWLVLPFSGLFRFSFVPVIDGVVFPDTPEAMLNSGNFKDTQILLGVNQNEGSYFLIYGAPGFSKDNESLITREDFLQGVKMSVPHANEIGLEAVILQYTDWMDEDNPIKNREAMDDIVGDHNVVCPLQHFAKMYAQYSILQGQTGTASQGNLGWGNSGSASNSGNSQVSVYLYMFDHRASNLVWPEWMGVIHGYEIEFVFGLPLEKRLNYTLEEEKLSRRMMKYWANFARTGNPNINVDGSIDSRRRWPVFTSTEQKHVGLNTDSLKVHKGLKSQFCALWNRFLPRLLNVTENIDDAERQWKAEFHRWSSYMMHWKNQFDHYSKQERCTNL
UniProt Q869C3, whole entry, looked up: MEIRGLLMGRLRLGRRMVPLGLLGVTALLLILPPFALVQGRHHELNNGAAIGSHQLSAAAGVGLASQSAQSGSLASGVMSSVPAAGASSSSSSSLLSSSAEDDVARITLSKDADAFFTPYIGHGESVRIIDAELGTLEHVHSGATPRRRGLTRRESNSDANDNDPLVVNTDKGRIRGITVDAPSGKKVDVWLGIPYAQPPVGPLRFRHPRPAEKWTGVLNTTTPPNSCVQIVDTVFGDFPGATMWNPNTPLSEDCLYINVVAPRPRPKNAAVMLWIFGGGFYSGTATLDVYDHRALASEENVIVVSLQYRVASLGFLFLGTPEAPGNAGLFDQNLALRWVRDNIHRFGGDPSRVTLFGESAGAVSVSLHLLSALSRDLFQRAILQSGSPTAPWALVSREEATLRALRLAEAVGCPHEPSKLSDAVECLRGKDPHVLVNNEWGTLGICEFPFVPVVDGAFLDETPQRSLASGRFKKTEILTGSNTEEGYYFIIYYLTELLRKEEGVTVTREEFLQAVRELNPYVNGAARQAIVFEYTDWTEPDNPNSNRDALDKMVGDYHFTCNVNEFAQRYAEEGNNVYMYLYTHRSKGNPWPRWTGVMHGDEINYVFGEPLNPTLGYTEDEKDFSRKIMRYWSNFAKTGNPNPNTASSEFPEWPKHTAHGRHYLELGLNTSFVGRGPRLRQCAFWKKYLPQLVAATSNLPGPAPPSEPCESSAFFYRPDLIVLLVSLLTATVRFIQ
UniProt Q8IEG9, whole entry, looked up: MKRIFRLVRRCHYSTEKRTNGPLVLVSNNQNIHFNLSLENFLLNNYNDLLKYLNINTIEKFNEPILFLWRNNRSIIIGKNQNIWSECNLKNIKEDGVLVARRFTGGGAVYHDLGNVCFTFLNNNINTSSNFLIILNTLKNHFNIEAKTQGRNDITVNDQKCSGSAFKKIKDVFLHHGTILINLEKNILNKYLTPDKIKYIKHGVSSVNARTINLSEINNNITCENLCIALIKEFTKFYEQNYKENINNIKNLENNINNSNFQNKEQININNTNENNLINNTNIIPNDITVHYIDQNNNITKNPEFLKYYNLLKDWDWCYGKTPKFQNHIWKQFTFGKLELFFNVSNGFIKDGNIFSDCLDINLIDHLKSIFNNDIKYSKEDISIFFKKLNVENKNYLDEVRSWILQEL

neutrophil inhibitory factor — Kd (Integrin beta-2 (Homo sapiens, UniProt P05107); binding, solid-phase binding): > 100 µM
CO[C@]12CC[C@@]3(C[C@@H]1C(C)(C)O)[C@H]1Cc4ccc(O)c5c4[C@@]3(CCN1CC1CC1)[C@H]2O5 — Kd (Mu-type opioid receptor (Lithobates pipiens, UniProt Q7T069); radioligand saturation binding; HEK-293T transfected; frog mu opioid receptor): 0.0022 ± 0.0009 µM
[N-]=[N+]=[N-] — Kd (Azurin, iron(II)-substituted (azu, Pseudomonas aeruginosa, UniProt P00282, M141A); 1H NMR titration; pH 7, Fe(II)-substituted protein): ~20000 µM
[3H]diprenorphine — Kd (Kappa-type opioid receptor (OPRK1, Homo sapiens, UniProt P41145); radioligand, saturation binding; N2a cell membranes; 1 h, pH 7.4, room temperature, with: [3H]diprenorphine): 0.00015 ± 1e-05 µM
N=C(NCCC[C@H](N)C(=O)O)NP(=O)(O)O — Kd (Negative regulator of genetic competence ClpC/MecB (clpC, Bacillus subtilis, UniProt P37571); isothermal titration calorimetry): 13 µM
CNC(=O)CCCCC1CCSS1 (centres unmarked) — Kd (Lipoate-protein ligase A1 (Listeria monocytogenes, UniProt A0A1D2IX29); isothermal titration calorimetry): 15 µM
O=C(Cn1c(-c2ccccn2)nc2ccccc21)Nc1ccc2ccccc2c1 — Kd (guaB (Vibrio cholerae, UniProt Q9KTW3); binding, biolayer interferometry; 25 °C, with: IMP 1 mM, NAD+): > 5 µM
Cc1cc(O)ccc1O — Kd (Probable HTH-type transcriptional regulator YhaJ, effector-binding domain (yhaJ, Escherichia coli, UniProt P67660, E104A); microscale thermophoresis; pH 7.5): 18900 ± 5300 µM
C[C@@H](Oc1cc[n+]([O-])c2ccccc12)c1cn(-c2ccc(Cl)cc2)nn1 — Kd (guaB (Campylobacter jejuni, UniProt Q0P9J4); binding, biolayer interferometry; 25 °C, with: IMP 1 mM, NAD+): 0.2 ± 0.018 µM
O=P(O)(O)O[C@H]1[C@H](OP(=O)(O)O)[C@@H](OP(=O)(O)O)[C@H](OP(=O)(O)O)[C@@H](OP(=O)(O)O)[C@H]1OP(=O)(O)O — Kd (Toxin A (tcdA, Clostridioides difficile, UniProt P16154); binding, radioligand binding; cysteine protease domain allosteric site; with: tritiated compound): 0.0626 ± 0.007 µM
COc1cc2oc3ccc(O)cc3c(=O)c2c(OC)c1OC — Kd (Acetylcholinesterase (ache, Electrophorus electricus, UniProt O42275); surface plasmon resonance; 25 °C): 87.7 µM
CNC(=O)Oc1cccc2ccccc12 — Kd (Acetylcholinesterase (Ace, Anopheles gambiae, UniProt Q869C3); enzyme inhibition, inhibitor; with: acetylthiocholine 600 µM): 4.7 ± 1.63 µM
O=C(O)CCCC[C@@H]1CCSS1 — Kd (Lipoate--protein ligase 1 (LipL1, Plasmodium falciparum, UniProt Q8IEG9); isothermal titration calorimetry): 2.6 µM
C[C@H](NC(=O)[C@H](CO)NC(=O)[C@@H](NC(=O)[C@@H](N)CO)[C@@H](C)O)C(=O)O — Kd (Dipeptide-binding protein DppA (Helicobacter pylori, UniProt O25069); thermal shift; at To, unfolding equilibrium model): 29 ± 2 µM

Repeated from above:
COc1cc2oc3ccc(O)cc3c(=O)c2c(OC)c1OC — Kd (Acetylcholinesterase (ache, Electrophorus electricus, UniProt O42275); surface plasmon resonance; 25 °C): 87.7 µM
